Published values from different studies.
Values joined by “and” are separate records of one study, mostly repeats; a detail may differ. ± gives the spread as reported.
Cacna1b: Voltage-dependent N-type calcium channel subunit alpha-1B (Cacna1b, Rattus norvegicus, UniProt Q02294)
Sequence of UniProt Q02294 (whole entry, looked up): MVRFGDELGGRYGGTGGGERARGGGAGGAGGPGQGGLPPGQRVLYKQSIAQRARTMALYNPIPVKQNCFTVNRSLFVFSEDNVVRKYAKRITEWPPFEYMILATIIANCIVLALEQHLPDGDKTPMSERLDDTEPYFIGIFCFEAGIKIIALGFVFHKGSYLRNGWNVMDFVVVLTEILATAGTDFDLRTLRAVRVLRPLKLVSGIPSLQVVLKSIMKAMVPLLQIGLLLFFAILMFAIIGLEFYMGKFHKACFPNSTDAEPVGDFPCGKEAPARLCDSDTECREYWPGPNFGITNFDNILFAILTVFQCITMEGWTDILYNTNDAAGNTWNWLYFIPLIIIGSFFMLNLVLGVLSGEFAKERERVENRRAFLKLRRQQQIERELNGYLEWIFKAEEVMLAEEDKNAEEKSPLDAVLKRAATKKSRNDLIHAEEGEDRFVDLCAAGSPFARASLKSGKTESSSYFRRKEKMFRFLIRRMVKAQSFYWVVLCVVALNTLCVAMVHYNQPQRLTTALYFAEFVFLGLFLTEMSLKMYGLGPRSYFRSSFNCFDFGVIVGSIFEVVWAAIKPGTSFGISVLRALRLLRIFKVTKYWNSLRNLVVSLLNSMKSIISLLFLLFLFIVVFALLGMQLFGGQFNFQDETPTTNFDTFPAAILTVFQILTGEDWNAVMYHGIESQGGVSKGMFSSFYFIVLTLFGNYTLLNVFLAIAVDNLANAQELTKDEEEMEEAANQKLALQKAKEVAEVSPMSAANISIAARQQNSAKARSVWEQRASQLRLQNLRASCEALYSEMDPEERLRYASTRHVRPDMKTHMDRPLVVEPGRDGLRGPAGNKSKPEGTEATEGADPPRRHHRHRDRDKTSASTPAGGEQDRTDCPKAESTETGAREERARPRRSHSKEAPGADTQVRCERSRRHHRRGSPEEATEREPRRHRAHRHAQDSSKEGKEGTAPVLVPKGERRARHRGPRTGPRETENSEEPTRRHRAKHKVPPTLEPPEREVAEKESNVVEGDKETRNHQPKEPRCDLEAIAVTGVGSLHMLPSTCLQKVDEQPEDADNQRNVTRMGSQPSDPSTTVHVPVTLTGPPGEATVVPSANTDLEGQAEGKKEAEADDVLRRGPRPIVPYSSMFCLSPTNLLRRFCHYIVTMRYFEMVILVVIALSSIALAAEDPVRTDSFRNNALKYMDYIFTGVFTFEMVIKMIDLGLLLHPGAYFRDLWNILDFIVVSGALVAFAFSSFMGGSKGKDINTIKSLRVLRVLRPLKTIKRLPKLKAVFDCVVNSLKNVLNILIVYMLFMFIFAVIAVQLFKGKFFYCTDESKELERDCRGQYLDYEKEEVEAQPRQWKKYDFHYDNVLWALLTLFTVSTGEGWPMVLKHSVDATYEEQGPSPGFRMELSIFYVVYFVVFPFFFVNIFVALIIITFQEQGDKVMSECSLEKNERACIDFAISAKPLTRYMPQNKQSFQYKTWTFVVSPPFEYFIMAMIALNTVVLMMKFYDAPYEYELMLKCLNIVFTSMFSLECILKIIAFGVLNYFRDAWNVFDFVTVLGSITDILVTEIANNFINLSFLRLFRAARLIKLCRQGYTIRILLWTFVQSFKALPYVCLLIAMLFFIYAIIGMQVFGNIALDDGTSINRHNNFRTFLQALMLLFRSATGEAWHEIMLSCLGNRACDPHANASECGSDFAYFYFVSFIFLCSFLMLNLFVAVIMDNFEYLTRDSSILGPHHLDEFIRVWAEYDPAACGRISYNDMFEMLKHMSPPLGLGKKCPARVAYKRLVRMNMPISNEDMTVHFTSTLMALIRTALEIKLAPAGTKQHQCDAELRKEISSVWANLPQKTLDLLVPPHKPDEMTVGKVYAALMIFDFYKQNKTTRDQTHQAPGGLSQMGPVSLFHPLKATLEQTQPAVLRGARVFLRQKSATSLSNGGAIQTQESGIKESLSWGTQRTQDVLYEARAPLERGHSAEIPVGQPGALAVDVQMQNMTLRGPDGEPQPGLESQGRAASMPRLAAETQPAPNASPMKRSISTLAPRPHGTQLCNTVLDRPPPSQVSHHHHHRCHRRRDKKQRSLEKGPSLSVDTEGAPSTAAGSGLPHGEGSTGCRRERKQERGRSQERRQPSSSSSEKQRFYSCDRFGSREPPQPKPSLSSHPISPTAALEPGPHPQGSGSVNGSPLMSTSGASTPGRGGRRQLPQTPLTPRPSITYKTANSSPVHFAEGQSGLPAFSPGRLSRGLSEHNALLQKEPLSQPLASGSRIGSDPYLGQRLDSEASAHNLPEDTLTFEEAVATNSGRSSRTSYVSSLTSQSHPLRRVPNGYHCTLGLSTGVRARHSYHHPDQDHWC
inhA: Enoyl-[acyl-carrier-protein] reductase [NADH] (inhA, Mycobacterium tuberculosis, UniProt P9WGR1)
Sequence of UniProt Q8NER1 (whole entry, looked up): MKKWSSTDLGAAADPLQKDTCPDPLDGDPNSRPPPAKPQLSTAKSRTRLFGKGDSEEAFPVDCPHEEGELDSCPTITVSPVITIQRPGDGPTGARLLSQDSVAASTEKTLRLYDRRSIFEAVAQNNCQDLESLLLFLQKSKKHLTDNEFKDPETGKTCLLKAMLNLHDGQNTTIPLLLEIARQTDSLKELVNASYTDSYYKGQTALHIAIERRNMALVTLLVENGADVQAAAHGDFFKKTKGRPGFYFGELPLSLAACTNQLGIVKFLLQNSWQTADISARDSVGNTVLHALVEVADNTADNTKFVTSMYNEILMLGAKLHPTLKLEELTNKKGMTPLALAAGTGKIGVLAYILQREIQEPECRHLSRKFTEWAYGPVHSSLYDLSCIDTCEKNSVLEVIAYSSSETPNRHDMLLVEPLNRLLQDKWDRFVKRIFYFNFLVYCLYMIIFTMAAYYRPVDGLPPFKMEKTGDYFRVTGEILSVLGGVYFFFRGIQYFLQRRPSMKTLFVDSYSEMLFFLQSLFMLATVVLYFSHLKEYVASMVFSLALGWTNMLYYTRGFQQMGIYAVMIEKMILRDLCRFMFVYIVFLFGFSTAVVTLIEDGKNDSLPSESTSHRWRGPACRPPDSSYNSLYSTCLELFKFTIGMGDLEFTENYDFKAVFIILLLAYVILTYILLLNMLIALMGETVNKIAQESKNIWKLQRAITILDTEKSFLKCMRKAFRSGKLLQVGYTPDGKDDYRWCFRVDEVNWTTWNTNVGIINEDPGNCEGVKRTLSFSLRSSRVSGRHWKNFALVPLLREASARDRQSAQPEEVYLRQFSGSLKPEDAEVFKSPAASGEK
Sequence of UniProt P9WGR1 (whole entry, looked up): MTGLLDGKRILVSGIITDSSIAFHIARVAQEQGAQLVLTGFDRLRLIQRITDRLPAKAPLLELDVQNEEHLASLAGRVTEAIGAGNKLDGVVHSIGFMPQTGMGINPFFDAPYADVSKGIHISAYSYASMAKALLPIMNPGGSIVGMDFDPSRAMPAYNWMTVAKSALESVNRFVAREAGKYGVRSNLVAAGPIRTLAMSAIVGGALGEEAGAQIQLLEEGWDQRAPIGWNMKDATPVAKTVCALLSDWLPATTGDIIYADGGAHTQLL
Sequence of UniProt P21452 (whole entry, looked up): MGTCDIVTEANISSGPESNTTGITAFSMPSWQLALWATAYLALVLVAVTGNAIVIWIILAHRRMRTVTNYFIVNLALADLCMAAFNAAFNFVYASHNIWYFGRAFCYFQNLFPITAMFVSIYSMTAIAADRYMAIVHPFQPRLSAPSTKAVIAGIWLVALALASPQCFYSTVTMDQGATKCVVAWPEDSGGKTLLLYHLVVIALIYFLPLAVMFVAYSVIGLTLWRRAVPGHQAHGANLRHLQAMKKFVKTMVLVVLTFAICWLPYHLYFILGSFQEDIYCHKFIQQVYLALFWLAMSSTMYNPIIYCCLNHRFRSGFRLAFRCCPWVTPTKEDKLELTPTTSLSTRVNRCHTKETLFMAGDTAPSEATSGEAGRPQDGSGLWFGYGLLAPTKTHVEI
Sequence of UniProt Q13555 (whole entry, looked up): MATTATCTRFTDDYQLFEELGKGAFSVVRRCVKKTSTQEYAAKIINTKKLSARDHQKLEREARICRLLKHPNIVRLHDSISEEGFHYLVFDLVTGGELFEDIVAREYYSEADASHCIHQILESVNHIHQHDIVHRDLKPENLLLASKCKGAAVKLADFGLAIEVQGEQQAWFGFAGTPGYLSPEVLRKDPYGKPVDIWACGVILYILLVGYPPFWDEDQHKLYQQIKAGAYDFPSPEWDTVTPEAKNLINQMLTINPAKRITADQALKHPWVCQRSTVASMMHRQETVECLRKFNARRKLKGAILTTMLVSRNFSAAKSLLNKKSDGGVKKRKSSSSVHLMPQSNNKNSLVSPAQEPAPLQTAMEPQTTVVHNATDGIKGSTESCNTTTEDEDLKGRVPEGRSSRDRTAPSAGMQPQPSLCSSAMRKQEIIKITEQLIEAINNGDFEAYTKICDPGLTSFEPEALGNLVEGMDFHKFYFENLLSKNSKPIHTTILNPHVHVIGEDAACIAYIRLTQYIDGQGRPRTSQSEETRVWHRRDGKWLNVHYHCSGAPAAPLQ
Sequence of UniProt P28564 (whole entry, looked up): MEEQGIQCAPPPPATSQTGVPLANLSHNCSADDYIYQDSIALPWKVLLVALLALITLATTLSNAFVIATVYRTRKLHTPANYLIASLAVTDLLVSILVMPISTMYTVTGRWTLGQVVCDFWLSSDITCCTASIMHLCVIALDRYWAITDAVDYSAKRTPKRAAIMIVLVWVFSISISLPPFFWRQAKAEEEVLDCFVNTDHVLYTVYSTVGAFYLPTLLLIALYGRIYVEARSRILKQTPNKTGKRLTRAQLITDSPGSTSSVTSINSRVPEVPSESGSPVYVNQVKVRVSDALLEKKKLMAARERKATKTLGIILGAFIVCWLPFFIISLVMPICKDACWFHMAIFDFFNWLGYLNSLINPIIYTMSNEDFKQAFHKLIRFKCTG

Compound	target or system	test	test system	conditions	measurement	value
CS(C)(=O)=Nc1ccc(-c2ccc(-c3nc4cc(O[C@@H]5CO[C@H]6[C@@H]5OC[C@H]6O)[nH]c4cc3F)cc2)cc1	Substance-K receptor (TACR2, Homo sapiens, UniProt P21452)	calcium signal, antagonist		10 µM	inhibition	50%
C[Si](C)(C)C[C@H](CN)CC(=O)O	Cacna1b	cell-free assay, inhibitor		250 µM	inhibition	-3%
CC(C)c1nc2cc(O)ccc2c(=O)n1-c1ccc(C#N)cc1	Transient receptor potential cation channel subfamily V member 1 (TRPV1, Homo sapiens, UniProt Q8NER1)	ion current, whole-cell patch clamp	HEK-293T	1 µM, pH 5	inhibition	67.2% and 65.2% and 50.4% and 89.7% and 82.2% and 58.2%
CN[C@@H]1[C@H](O)[C@H](NC)[C@H]2O[C@]3(O)[C@H](O[C@@H]2[C@H]1O)O[C@H](C)C[C@H]3NC(=O)Cc1ccc(Cl)cn1	ATP-binding cassette sub-family C member 8 (ABCC8, Cricetus cricetus, UniProt Q09427)			10 µM	inhibition	3%
N#Cc1ccc(Oc2ccc(Cl)cc2Cl)c(O)c1	inhA	enzyme activity, inhibitor		concentration not given	inhibition	97 ± 0.06%
CN(C)[C@H]1C[C@@]23CC[C@@]4(O2)C(=CC[C@]2(C)[C@@H](c5ccc6ccncc6c5)CC[C@H]24)C=C3[C@@H](O)[C@@H]1O	Calcium/calmodulin-dependent protein kinase type II subunit gamma (CAMK2G, Homo sapiens, UniProt Q13555)	ATP probe labelling, inhibitor, KiNativ profiling		0.1 µM	inhibition	4.8%
CCCCCCNCc1ccc(Oc2ccc(Cl)cc2O)c(Cl)c1	inhA	enzyme activity, inhibitor		concentration not given	inhibition	38 ± 0.15%
C[Si]1(C[C@H](CN)CC(=O)O)CCCC1	Cacna1b	cell-free assay, inhibitor		70 µM	inhibition	1%
CCCCCCNCc1ccc(Oc2ccc(Cl)cc2Cl)c(O)c1	inhA	enzyme activity, inhibitor		concentration not given	inhibition	73 ± 0.4%
CCN(CC)C(=O)[C@@H]1C=C2c3cccc4c3c(cn4C(=O)c3ccco3)C[C@H]2N(C)C1	D(1B) dopamine receptor (DRD5, Homo sapiens, UniProt P21918)	radioligand binding		10 µM	inhibition	< 50%
CC(C)(C)C(=O)OCOP(=O)(OCOC(=O)C(C)(C)C)C1CCCN(O)C1=O (stereo not shown)	Malme-3M				GI50	425 nM
O=C1NC2(CC2)COc2ncc(F)cc2[C@H]2COCCN2c2ccn3ncc1c3n2			Sprague-Dawley rat, female, thymus	oral, 5 mg/kg/day, 4 weeks, end of treatment	organ-to-brain weight ratio	31.1 ± 8.4%
Cc1sc2c(c1C)C(c1ccc(Cl)cc1)=NC(CC(=O)OC(C)(C)C)c1nnc(C)n1-2 (stereo not shown)	5-hydroxytryptamine receptor 1B (Htr1b, Rattus norvegicus, UniProt P28564)	ligand displacement, radioligand		1 µM	inhibition	-4%

For quick reference, copied from above:
Compound	target or system	test	test system	conditions	measurement	value
CC(C)(C)C(=O)OCOP(=O)(OCOC(=O)C(C)(C)C)C1CCCN(O)C1=O (stereo not shown)	Malme-3M				GI50	425 nM
